Experimental data collected from several papers.
Parts stem from different laboratories: compare values within a part only. Positions count from the first letter of the parent shown.

Sample 1
Target: PABPC1L2, full length, GST fusion (mouse, UniProt A0ABA7IW68)
Technique: RNAcompete
Form: RNA
Medium: in vitro
Tested at: 20 nM
Notes: 7-mer, probes averaged, single round
Relative to: mean of 7-mers
Direction: higher = stronger binding
Quantity: 7-mer Z-score
Sequence = GGGGUUA; value = 0.218
Sequence = UUAUUGU; value = -0.231
Sequence = CUGUUCG; value = -0.393
Sequence = GUGGAUG; value = 0.321
Sequence = AAUCCGG; value = -0.0156
Sequence = AGCGCAG; value = 0.0261
Sequence = CGAGUGG; value = -0.0428
Sequence = UCUGGGC; value = 0.0623

Sample 2
Target: CREB5, bZIP domain (human)
Technique: DHFR protein complementation
Medium: yeast
Notes: single substitutions, most at no-binding floor
Relative to: wild-type JUN-FOS pair
Direction: higher = stronger binding
Quantity: binding fitness
Starting sequence: JUN, bZIP domain (human); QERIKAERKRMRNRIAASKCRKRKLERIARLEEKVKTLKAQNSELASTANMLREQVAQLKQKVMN; partner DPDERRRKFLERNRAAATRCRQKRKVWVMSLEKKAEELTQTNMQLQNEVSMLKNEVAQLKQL
Variant = R53Q; value = -0.928 natural log
Variant = M51H; value = -0.339 natural log
Variant = A57N; value = -0.3 natural log
Variant = K36L; value = -0.399 natural log
Variant = A29P; value = -0.989 natural log
Variant = K36N; value = -0.274 natural log
Variant = E32L; value = -0.302 natural log
Variant = Q55V; value = -0.568 natural log

Other studies, line by line
P1: PafA, mature enzyme, eGFP fusion (Elizabethkingia meningoseptica, UniProt Q9KJX5); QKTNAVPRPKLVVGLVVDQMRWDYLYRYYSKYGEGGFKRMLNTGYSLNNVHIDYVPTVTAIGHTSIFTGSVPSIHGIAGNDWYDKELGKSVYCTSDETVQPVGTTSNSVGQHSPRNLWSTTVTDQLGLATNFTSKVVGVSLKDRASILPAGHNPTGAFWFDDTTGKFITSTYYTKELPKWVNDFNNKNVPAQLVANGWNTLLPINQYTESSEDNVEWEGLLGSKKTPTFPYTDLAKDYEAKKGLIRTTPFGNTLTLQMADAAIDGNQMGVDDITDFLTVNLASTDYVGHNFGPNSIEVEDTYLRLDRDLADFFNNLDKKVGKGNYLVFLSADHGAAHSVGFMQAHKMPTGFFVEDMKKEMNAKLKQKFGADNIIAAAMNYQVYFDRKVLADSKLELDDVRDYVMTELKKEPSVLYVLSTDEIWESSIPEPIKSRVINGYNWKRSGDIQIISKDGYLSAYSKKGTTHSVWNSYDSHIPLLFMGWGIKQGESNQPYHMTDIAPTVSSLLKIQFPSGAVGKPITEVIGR
Substance = CCT3 (Homo sapiens, UniProt P49368); target or system = CCT8 (Homo sapiens, UniProt P50990); test = cross-linking MS; system = cell fractions; setting = with: DMTMM; quantity = cross-linked residues; value = K222 to D548
Substance = P1 K175G; target or system = vanadate, free oxyanion; test = microfluidic competitive inhibition; system = in vitro, cell-free expressed; setting = not given, derived from inhibition constants, unchanged parent 676 nM; scale = lower = stronger binding; quantity = oxyanion analog dissociation constant; value = 1.34 µM
Substance = PDCD5 (Homo sapiens, UniProt O14737); target or system = CCT4 (Homo sapiens, UniProt P50991); test = cross-linking MS; system = cell fractions; setting = with: DSSO; quantity = cross-linked residues; value = K110 to K79
Substance = NDUFB3 (Homo sapiens, UniProt O43676); target or system = PARP1 (Homo sapiens, UniProt P09874); test = cross-linking MS; system = cell fractions; setting = with: DSSO; quantity = cross-linked residues; value = K39 to K262
Substance = SF3A3 (Homo sapiens, UniProt Q12874); target or system = SF3B2 (Homo sapiens, UniProt Q13435); test = cross-linking MS; system = cell fractions; setting = with: DSSO; quantity = cross-linked residues; value = K420 to K514

Some of these lines once more (sample 1):
Sequence = CGAGUGG; value = -0.0428
Sequence = AGCGCAG; value = 0.0261
